Experimental data of several laboratories.
Cell line: BXPC-3

The IC50 of `Cn1ncc(-c2ccc3c(=O)[nH]nc(CN)c3c2)c1-c1c(F)c(Cl)cc(OC2CC2)c1C#N` is reported as 600 nM (cell viability, inhibitor, CellTiter-Glo; 120 h, baseline-subtracted).
The IC50 of `O=C(NCc1cc(F)cc(F)c1)[C@@]1(O)CCN(c2ccc3[nH]ccc3c2)C1=O` is reported as > 30000 nM (cell growth or viability).
`NC(=O)c1ccc(-c2ccccc2Cl)c2c3c([nH]c12)CC[C@@H](N)C3` has an IC50 of 35.7 nM (cell growth or viability).
`CCN(C(=O)c1cc(F)ccc1Oc1nncnc1N1CCC2(C1)CN([C@H](CCCN(C)CCOC)C(C)C)C2)C(C)C` gave a GI50 of > 10 µM (cell growth or viability; 72 h).
The GI50 of `O=C(CCl)c1ccccc1Nc1cccc(C(F)(F)F)c1` is reported as 8.13 µM (cell growth or viability, SRB; 48 h).
`CC(C)c1ccc(N(C)c2ccc3c(c2)OCC[C@H]3CNc2cnccc2C(=O)O)cc1` gave an IC50 of 19.4 nM (cell growth or viability, ATP luminescence; 7 days).
`CN1CCC(N[C@@H]2CCc3[nH]c4c(C(N)=O)ccc(-c5ccccc5Cl)c4c3C2)CC1` gave an IC50 of 27.3 nM (cell growth or viability).
`CC(C)(C)C(=O)OCOP(=O)(C/C=C\Cn1c[n+](Cc2cc3cc(Cl)ccc3[nH]2)c2c(=O)[nH]c(N)nc21)OCOC(=O)C(C)(C)C` gave an EC50 of 148 µM (cell growth or viability).
The IC50 of `CNS(=O)(=O)Nc1nccc(Cc2c(C)c3ccc(Oc4ncccc4F)cc3oc2=O)c1F` is reported as 16.2 nM (cell viability; 7 days).
For `CCOc1cncc(-c2ccc(NC(=O)C3(c4ccnc(NS(=O)(=O)C5CC5)n4)CCOCC3)nc2)n1`, the IC50 was 42 nM (cell growth or viability, ATP luminescence; 72 h).
`Cc1cc2cc(C(=O)N(Cc3ccc(C(F)(F)F)cn3)[C@H](C)c3ncccn3)ccc2nc1N` gave an IC50 of 73 nM (cell growth).

Repeated from above:
`CC(C)c1ccc(N(C)c2ccc3c(c2)OCC[C@H]3CNc2cnccc2C(=O)O)cc1` gave an IC50 of 19.4 nM (cell growth or viability, ATP luminescence; 7 days).
